Published values pooled from the literature.
Each numbered part is a random draw from the data of one study; scales do not carry over between parts.
Chain of UniProt Q08881 (whole entry, looked up): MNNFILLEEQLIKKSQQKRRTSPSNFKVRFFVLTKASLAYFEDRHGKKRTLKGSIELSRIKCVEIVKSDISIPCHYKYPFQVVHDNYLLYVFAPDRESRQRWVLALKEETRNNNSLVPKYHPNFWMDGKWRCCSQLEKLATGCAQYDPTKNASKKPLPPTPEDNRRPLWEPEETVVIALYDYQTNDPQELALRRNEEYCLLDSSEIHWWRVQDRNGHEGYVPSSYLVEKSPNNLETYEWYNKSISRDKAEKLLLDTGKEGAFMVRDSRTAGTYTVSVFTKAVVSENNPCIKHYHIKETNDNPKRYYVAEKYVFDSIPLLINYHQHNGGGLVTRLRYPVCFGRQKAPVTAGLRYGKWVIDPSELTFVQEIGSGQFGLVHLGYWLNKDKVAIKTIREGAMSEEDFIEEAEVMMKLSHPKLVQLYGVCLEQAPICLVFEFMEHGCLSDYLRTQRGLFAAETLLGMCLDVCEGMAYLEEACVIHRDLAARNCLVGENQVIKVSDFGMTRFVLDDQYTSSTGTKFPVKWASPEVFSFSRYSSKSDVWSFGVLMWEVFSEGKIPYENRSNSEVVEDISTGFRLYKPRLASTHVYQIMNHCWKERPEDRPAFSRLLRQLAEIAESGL
Chain of UniProt Q16512 (whole entry, looked up): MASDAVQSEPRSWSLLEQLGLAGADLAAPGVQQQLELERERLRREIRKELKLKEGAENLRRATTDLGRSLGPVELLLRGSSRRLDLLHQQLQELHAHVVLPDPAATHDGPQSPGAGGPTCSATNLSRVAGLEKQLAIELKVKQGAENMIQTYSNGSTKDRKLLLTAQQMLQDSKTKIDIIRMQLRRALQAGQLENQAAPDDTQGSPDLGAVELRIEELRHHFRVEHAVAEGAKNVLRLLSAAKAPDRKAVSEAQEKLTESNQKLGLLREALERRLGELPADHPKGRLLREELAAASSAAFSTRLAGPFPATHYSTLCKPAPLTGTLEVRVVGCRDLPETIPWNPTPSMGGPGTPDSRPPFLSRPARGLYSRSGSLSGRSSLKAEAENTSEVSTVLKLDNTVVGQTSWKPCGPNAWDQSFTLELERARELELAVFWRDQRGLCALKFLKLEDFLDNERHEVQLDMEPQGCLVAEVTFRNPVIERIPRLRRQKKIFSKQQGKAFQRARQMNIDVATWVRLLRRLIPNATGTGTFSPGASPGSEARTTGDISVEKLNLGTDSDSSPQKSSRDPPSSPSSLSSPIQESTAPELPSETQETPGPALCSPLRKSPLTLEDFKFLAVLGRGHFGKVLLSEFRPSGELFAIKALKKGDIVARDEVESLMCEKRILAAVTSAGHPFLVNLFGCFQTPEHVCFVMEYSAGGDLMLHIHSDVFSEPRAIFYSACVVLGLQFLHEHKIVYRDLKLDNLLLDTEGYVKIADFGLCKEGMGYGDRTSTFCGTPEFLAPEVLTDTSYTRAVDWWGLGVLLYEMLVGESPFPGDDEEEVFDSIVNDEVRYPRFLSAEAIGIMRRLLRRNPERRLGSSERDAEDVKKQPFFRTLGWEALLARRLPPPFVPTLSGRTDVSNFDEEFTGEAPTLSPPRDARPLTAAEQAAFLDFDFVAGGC
Chain of UniProt Q9H2K8 (whole entry, looked up): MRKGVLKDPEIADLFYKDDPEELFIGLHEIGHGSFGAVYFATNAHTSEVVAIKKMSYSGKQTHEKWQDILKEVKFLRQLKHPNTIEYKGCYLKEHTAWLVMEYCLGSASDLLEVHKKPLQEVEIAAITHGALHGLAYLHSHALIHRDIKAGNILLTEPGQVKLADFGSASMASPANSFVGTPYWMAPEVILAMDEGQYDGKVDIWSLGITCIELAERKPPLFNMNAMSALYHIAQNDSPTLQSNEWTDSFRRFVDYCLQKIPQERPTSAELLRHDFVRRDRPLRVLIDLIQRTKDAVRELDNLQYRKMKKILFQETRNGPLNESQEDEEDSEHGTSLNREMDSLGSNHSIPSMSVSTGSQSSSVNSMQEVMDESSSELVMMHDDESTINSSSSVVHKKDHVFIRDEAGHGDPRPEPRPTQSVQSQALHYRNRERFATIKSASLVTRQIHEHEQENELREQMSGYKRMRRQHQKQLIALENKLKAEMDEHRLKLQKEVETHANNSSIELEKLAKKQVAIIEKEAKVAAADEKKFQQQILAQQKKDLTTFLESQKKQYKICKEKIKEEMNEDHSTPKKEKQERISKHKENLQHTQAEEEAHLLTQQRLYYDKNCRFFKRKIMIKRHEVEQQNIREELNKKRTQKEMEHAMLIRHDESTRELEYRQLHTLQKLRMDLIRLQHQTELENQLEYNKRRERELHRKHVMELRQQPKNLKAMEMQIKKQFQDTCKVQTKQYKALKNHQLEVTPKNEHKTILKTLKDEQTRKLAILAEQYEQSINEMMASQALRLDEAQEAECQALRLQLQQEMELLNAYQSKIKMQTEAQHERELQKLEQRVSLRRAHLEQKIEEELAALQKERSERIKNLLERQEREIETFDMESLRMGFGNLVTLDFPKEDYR

Series 1 — SMILES: COc1ccc2c(c1)/C(=C/c1cnc[nH]1)C(=O)N2; effect on: enzyme activity; action: inhibitor; concentration: 0.5 µM; baseline: control
target | remaining activity
MAP/microtubule affinity-regulating kinase 3 (MARK3, Homo sapiens, UniProt P27448) | 56.2%
Serine/threonine-protein kinase N1 (PKN1, Homo sapiens, UniProt Q16512) | 87.4%
Megakaryocyte-associated tyrosine-protein kinase (MATK, Homo sapiens, UniProt P42679) | 92.3%
PAS domain-containing serine/threonine-protein kinase (PASK, Homo sapiens, UniProt Q96RG2) | 93.4%
Serine/threonine-protein kinase NLK (NLK, Homo sapiens, UniProt Q9UBE8) | 69.7%
Tyrosine-protein kinase ITK/TSK (ITK, Homo sapiens, UniProt Q08881) | 94%
Serine/threonine-protein kinase 25 (STK25, Homo sapiens, UniProt O00506) | 86.2%
ALK tyrosine kinase receptor (ALK, Homo sapiens, UniProt Q9UM73) | 112%
Vascular endothelial growth factor receptor 3 (FLT4, Homo sapiens, UniProt P35916) | 66.4%
Tyrosine-protein kinase Fyn (FYN, Homo sapiens, UniProt P06241) | 81.2%
Serine/threonine-protein kinase Nek11 (NEK11, Homo sapiens, UniProt Q8NG66) | 84.8%
Homeodomain-interacting protein kinase 1 (HIPK1, Homo sapiens, UniProt Q86Z02) | 98.9%
Serine/threonine-protein kinase MRCK alpha (CDC42BPA, Homo sapiens, UniProt Q5VT25) | 98.5%
Tyrosine-protein kinase Fer (FER, Homo sapiens, UniProt P16591) | 88.4%
Proto-oncogene tyrosine-protein kinase Src (SRC, Homo sapiens, UniProt P12931) | 92.1%
LIM domain kinase 1 (LIMK1, Homo sapiens, UniProt P53667) | 89.6%
cAMP-dependent protein kinase catalytic subunit PRKX (PRKX, Homo sapiens, UniProt P51817) | 87.9%
RAC-alpha serine/threonine-protein kinase (AKT1, Homo sapiens, UniProt P31749) | 100%
Serine/threonine-protein kinase TAO3 (TAOK3, Homo sapiens, UniProt Q9H2K8) | 44%
Tyrosine-protein kinase Fgr (FGR, Homo sapiens, UniProt P09769) | 80.4%

Series 2 — organism: Sarcocystis neurona; effect on: parasite growth; concentration: 10 µM; time: 96 h; notes: second screen; baseline: untreated
SMILES | log2 fold change
O=C(c1ccc(F)cc1)C1CCN(CCn2c(=S)[nH]c3ccccc3c2=O)CC1 | -1.59
CN1C(=O)CN=C(c2ccccc2)c2cc(Cl)ccc21 | 0.35
CCC1(c2ccc(N)cc2)CCC(=O)NC1=O (stereo not shown) | 0.39
NC1=NC(=O)C(c2ccccc2)O1 (stereo not shown) | 0.33
O=C(O)C(Cl)Cl | 0.27
c1cncc([C@@H]2CCCN2)c1 | 0.52
Oc1c(Cl)cc(Cl)c(Cl)c1Cc1c(O)c(Cl)cc(Cl)c1Cl | -1.75
CC(C)[C@]12O[C@H]1[C@@H]1O[C@]13[C@]1(O[C@H]1C[C@H]1C4=C(CC[C@@]13C)C(=O)OC4)[C@@H]2O | -2.49

Series 3 — cell line: mouse MPNST tumor cells; technique: high-content nuclear imaging; refers to: cell number; concentration: 10 µM; time: 12 h; notes: mean of 2 replicates; baseline: plate mean; direction: higher = more cells
Compound | nuclei count
O=C1Nc2ccccc2C2(CCN(CCc3ccc(C(F)(F)F)cc3)CC2)O1 | -1.02 z-score
CN(Cc1cccc(-c2ccccc2)c1)C(=O)Oc1ccc(-c2ccc(C(N)=O)cc2)cc1 | -0.143 z-score
CC(C)c1ccccc1C1SCC(=O)Nc2ccc(Cl)cc21 (stereo not shown) | 0.716 z-score
CCC1(c2ccc(N)cc2)CCC(=O)NC1=O (stereo not shown) | 0.909 z-score

Series 4 — effect on: cell-free assay; concentration: 10 µM
Compound: O=C(c1ccc(F)cc1)N1CC(COc2ccc(Br)cc2)(C(=O)O)C1
target | inhibition
Kappa-type opioid receptor (OPRK1, Homo sapiens, UniProt P41145) | -9.45%
5-hydroxytryptamine receptor 2A (HTR2A, Homo sapiens, UniProt P28223) | -2.23%
Muscarinic acetylcholine receptor M3 (CHRM3, Homo sapiens, UniProt P20309) | 27.9%
Mu-type opioid receptor (OPRM1, Homo sapiens, UniProt P35372) | -11.9%
Muscarinic acetylcholine receptor M1 (CHRM1, Homo sapiens, UniProt P11229) | -0.69%
D(1B) dopamine receptor (DRD5, Homo sapiens, UniProt P21918) | 2.2%

Series 5 — effect on: enzyme activity; action: inhibitor; concentration: 77 µM; baseline: untreated
Target: DNA polymerase theta, ATPase domain (POLQ, Homo sapiens, UniProt O75417)
Chain of UniProt O75417 (whole entry, unmodified, looked up): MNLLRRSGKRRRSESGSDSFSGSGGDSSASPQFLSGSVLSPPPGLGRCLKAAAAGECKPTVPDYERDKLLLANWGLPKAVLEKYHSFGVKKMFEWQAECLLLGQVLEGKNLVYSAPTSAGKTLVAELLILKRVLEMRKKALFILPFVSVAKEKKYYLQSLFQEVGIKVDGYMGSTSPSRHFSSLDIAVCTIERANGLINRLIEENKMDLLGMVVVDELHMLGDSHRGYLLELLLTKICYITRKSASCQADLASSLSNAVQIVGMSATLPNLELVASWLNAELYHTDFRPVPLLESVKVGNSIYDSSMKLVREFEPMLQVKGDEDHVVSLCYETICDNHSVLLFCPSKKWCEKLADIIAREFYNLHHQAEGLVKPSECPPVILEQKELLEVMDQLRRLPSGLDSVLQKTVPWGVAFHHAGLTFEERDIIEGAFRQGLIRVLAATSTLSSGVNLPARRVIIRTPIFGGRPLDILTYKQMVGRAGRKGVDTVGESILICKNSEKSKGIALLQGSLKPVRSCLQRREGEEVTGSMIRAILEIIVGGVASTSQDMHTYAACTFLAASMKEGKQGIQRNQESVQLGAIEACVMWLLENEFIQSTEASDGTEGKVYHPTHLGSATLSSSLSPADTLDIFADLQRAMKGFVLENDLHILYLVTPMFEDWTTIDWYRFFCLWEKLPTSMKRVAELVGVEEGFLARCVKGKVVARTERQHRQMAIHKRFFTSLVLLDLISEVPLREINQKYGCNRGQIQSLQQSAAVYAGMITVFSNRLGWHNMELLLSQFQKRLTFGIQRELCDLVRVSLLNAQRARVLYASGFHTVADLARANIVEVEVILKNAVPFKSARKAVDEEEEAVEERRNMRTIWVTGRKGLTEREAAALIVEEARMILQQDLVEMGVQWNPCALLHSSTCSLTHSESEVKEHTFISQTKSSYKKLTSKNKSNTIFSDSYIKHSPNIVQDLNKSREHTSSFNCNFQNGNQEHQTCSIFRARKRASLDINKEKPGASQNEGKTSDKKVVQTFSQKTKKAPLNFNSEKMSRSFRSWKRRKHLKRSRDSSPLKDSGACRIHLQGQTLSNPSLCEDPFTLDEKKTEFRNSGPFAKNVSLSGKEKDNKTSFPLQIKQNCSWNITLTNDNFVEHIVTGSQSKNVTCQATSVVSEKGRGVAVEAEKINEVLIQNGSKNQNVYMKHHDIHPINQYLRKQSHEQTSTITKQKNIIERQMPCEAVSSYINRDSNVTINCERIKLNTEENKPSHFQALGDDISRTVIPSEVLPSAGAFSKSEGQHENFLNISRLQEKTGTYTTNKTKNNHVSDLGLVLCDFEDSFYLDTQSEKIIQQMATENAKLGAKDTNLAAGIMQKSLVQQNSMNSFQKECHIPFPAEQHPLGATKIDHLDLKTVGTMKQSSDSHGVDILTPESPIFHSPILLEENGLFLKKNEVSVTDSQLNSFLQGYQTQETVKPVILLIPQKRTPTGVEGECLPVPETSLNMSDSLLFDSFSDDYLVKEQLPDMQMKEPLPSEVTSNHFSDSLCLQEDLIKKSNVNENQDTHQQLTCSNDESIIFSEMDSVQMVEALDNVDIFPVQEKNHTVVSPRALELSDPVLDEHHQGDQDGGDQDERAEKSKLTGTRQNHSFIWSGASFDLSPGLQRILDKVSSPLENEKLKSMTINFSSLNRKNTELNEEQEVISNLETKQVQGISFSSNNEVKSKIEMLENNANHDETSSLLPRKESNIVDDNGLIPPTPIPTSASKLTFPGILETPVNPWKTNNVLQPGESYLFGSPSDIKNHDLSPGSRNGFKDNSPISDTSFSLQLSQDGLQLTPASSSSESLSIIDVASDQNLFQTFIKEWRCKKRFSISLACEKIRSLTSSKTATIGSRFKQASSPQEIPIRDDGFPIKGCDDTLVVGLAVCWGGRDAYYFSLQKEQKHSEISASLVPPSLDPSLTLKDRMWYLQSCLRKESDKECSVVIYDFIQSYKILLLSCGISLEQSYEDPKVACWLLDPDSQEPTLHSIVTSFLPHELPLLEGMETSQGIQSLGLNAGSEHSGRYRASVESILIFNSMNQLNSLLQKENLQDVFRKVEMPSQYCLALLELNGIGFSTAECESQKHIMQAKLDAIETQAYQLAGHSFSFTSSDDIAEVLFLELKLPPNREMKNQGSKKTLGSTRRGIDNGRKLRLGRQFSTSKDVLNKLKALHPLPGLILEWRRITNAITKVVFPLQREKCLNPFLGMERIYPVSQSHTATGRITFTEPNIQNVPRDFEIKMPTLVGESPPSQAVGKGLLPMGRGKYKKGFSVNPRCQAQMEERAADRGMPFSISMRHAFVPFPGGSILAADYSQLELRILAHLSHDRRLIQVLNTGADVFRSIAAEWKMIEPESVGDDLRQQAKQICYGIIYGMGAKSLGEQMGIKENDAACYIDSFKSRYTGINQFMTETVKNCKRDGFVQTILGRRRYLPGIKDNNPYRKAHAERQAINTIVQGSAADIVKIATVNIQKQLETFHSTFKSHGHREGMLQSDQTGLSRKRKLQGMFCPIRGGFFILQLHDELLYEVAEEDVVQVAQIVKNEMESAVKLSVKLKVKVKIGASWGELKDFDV
SMILES | remaining activity [%]
COc1ccc2c(c1OC)CN1CCc3cc4c(cc3C1C2)OCO4 (stereo not shown) | 101
CCNC(=O)[C@H]1O[C@@H](n2cnc3c(N)ncnc32)[C@H](O)[C@@H]1O | 102
Clc1cnc(Oc2ccc(Oc3ncc(Cl)cc3Cl)cc2)c(Cl)c1 | 98.8
C#C[C@]1(O)CC[C@H]2[C@@H]3CCC4=CC(=O)CC[C@]4(C)[C@H]3CC[C@@]21C | 97.3
Nc1ccc(CCN2CCN(c3cccc(C(F)(F)F)c3)CC2)cc1 | 105
C[C@@H]1CC[C@@]2(OC1)O[C@H]1C[C@H]3[C@@H]4CC=C5C[C@@H](O[C@@H]6O[C@H](CO)[C@@H](O[C@@H]7O[C@@H](C)[C@H](O)[C@@H](O)[C@H]7O)[C@H](O)[C@H]6O[C@@H]6O[C@@H](C)[C@H](O)[C@@H](O)[C@H]6O)CC[C@]5(C)[C@H]4CC[C@]3(C)[C@H]1[C@@H]2C | 103
COc1cc(OC)c(OC)cc1C=O | 97.8

Single results of other studies
Compound | target | assay | setting | endpoint | value
CC#CC(=O)N1CCC[C@H]1c1nc(-c2ccc(C(=O)Nc3ccccn3)cc2)c2c(N)nccn12 | Serine/threonine-protein kinase PknB (pknB, Mycobacterium tuberculosis, UniProt P9WI81) | enzyme activity, inhibitor | 1 µM | inhibition | 0%
